Measurements collected from several papers.
Lines come from different studies, so protocols differ.
Sequence of UniProt P08183 (whole entry, looked up): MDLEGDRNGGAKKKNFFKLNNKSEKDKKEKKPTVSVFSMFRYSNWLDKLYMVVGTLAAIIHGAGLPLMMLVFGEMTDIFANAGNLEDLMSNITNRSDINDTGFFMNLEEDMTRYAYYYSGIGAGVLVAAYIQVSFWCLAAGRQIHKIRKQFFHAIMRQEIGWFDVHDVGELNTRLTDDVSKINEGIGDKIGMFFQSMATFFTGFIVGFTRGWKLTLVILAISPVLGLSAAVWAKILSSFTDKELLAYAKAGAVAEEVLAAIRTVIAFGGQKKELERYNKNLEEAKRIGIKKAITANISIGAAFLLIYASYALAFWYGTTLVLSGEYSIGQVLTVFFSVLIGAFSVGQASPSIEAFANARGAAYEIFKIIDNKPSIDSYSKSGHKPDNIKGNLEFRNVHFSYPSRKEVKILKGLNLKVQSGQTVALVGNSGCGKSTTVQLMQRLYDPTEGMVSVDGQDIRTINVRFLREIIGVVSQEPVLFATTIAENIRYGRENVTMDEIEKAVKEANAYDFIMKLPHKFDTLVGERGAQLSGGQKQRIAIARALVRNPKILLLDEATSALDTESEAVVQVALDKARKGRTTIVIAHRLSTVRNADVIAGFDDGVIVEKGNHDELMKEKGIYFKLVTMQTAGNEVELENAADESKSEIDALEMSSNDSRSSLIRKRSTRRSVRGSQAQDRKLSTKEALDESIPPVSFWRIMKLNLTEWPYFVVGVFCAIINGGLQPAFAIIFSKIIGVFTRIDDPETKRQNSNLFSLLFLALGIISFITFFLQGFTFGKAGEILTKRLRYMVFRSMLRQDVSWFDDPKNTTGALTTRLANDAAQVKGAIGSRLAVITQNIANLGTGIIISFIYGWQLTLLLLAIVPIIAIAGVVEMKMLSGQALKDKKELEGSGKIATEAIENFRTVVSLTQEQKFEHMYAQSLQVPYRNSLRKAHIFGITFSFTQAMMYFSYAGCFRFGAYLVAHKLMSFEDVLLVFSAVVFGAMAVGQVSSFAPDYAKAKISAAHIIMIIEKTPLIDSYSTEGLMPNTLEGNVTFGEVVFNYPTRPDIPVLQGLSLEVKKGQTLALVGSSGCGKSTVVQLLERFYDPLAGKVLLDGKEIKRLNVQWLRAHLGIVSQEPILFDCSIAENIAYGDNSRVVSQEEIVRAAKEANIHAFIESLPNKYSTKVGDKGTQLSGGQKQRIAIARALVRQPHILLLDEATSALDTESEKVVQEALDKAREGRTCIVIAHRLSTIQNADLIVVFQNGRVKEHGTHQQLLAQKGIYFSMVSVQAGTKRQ

Structure (SMILES) | tested on | test | test system | setting | how to read | measurement | result
CC(=O)O[C@H]1CC[C@@]2(C)C(=CC[C@@H]3[C@@H]2CC[C@]2(C)C(c4cccnc4)=CC[C@@H]32)C1 | African green monkey cells |  |  | 5 days |  | CC50 | 9.89 µM
CO[C@H]1C[C@@H]2CC[C@@H](C)[C@@](O)(O2)C(=O)C(=O)N2CCCC[C@H]2C(=O)O[C@H]([C@H](C)C[C@@H]2CC[C@@H](OC(=O)NCCOCCOCCOCCOCCOCCOCCOCCOCCC(=O)N3CCc4cc(Cn5nc(-c6ccc7oc(N)nc7c6)c6c(N)ncnc65)ccc4C3)[C@H](OC)C2)C[C@@H](O)[C@H](C)/C=C(\C)[C@@H](O)[C@@H](OC)C(=O)[C@H](C)C[C@H](C)/C=C/C=C/C=C/1C |  |  | patients with advanced solid tumours | intravenous, 16 mg weekly, grade 3 or higher |  | maculopapular rash incidence | 0%
Cc1cc(C(=O)NC(C)(C)COc2cccc3c2C(N)=NS(=O)(=O)N3)cc(C)n1 | Salmonella typhimurium | Ames test, initial | TA1537 | 500 µg/plate | baseline: solvent control | revertant ratio | 1.2
COc1cc2c(Oc3ccc4[nH]c(C)cc4c3F)ccnc2cc1OCC1(N)CC1 |  |  | paediatric recurrent refractory sarcoma | concentration not given, whole group |  | grade 1 or 2 Dizzy | 8.8%
O=C1c2c(O)c(=O)ccn2N([C@@H]2c3ccccc3SCc3c2ccc(F)c3F)[C@@H]2COCCN12 |  |  | BALB/c mouse | subcutaneous, 2 mg/kg q24h |  | Cmax | 101 ng/mL
CC(CN(C)C)CN1c2ccccc2Sc2ccccc21 (stereo not drawn) | African green monkey cells |  |  | 5 days |  | CC50 | 21.4 µM
COC(=O)[C@H]1[C@@H](OC(=O)c2ccccc2)C[C@@H]2CC[C@H]1N2 |  |  | rat, whole blood | 1000 nM, 4 h, room temperature, bench-top storage |  | stability bias | 0.72%
CC(C)CC(=O)OC[C@H]1O[C@@](C#N)(c2ccc3c(N)ncnn23)[C@H](O)[C@@H]1O | ABCB1 (Homo sapiens, UniProt P08183) |  | Caco-2 | 9 µM, added: verapamil 100 µM |  | Papp A to B | 1.46 ×10⁻⁶ cm/s
CN1[C@@H]2CC[C@H]1C[C@@H](OC(c1ccccc1)c1ccc(Cl)cc1)C2 (stereo partly drawn) | African green monkey cells |  |  | 5 days |  | CC50 | 8.13 µM
CN1[C@H]2CC[C@@H]1[C@@H](C(=O)O)[C@@H](OC(=O)c1ccccc1)C2 |  |  | rat, whole blood | 10 nM, 4 h, room temperature, bench-top storage |  | stability bias | -17.8%
COC(=O)N[C@H](C(=O)N1CCC[C@H]1c1ncc(-c2ccc3cc(-c4ccc5nc([C@@H]6CCCN6C(=O)[C@@H](NC(=O)OC)C(C)C)[nH]c5c4)ccc3c2)[nH]1)C(C)C | African green monkey cells |  |  | 5 days |  | CC50 | 12.7 µM
O=c1ccc2ccccc2o1 | NHEK | cell count |  | concentration not given, 24 h, pH2AX and pH3 panel |  | chance response | 0.01%
CN1CC[C@]23c4c5ccc(O[C@@H]6O[C@H](C(=O)O)[C@@H](O)[C@H](O)[C@H]6O)c4O[C@H]2[C@@H](O)C=C[C@H]3[C@H]1C5 |  |  | rat, whole blood | 10 nM, 4 h, room temperature, bench-top storage |  | stability bias | -7.5%
O=C1CC2(CCCC2)CC(=O)N1CCCCN1CCN(c2nsc3ccccc23)CC1 | African green monkey cells |  |  | 5 days |  | CC50 | 24.6 µM
COc1cccc(-c2n[nH]c(SCc3ccccn3)n2)c1OC | Salmonella typhimurium | Ames test, plate incorporation | TA1537 | 0.063 mg/plate, without S9 |  | revertant colonies per plate | 10

A few entries again:
Structure (SMILES) | tested on | test | test system | setting | how to read | measurement | result
COc1cc2c(Oc3ccc4[nH]c(C)cc4c3F)ccnc2cc1OCC1(N)CC1 |  |  | paediatric recurrent refractory sarcoma | concentration not given, whole group |  | grade 1 or 2 Dizzy | 8.8%
CN1[C@@H]2CC[C@H]1C[C@@H](OC(c1ccccc1)c1ccc(Cl)cc1)C2 (stereo partly drawn) | African green monkey cells |  |  | 5 days |  | CC50 | 8.13 µM
